{"data": "Measured values from different studies", "cell line": "T47D", "note": "Each line is one published result; not all experiments were run side by side. Several values in a cell are separate wells, animals, samples, runs or records. ± gives the spread as reported."}
{"Structure (SMILES)": "Cc1nc(NC(=O)N2CCC[C@H]2C(N)=O)sc1-c1ccnc(C(C)(C)C(F)(F)F)c1", "assay": "FOXO1 translocation, kinase translocation reporter", "setting": "2 h", "measurement": "IC50", "value": "0.249 µM"}
{"Structure (SMILES)": "C#C[C@@]1(O)[C@@H](CO)O[C@@H](n2cc(Cl)c3c(N)ncnc32)[C@@H]1O", "assay": "SRB", "setting": "NCI-60 screen", "measurement": "TGI", "value": "0.559 µM and 0.428 µM"}
{"Structure (SMILES)": "CCC(=O)N1CCC(COCC(=O)N2CCN(c3nc(-c4cnc(N)nc4C(F)F)nc(N4CCOC[C@@H]4C)n3)CC2)CC1", "assay": "cell growth", "setting": "72 h", "measurement": "GR50", "value": "33.9 nM"}
{"Structure (SMILES)": "Cc1cc(C)n(-c2nc(-c3ccc(Cl)cc3)c3c(NC(=O)c4ccccc4)nnc-3[nH]2)n1", "assay": "SRB", "setting": "10 µM, NCI60 single-dose screen", "scale": "baseline: untreated", "measurement": "cell growth", "value": "82.3%"}
{"Structure (SMILES)": "Cc1cc(=O)[nH]c(=O)n1Cc1cn(-c2cc3ccccc3oc2=O)nn1", "assay": "NCI60 single-dose screen", "setting": "10 µM", "measurement": "growth percentage", "value": "97.2%"}
{"Structure (SMILES)": "Cc1cc(=O)[nH]n1-c1nc(-c2ccc(Cl)cc2)c2c(NC(=O)c3ccccc3)nnc-2[nH]1", "assay": "SRB", "setting": "10 µM, NCI60 single-dose screen", "scale": "baseline: untreated", "measurement": "cell growth", "value": "102%"}
{"Structure (SMILES)": "CN1CCN(c2ccc3[nH]c(-c4ccc5[nH]c(-c6ccc(C(F)(F)F)cc6)nc5c4)nc3c2)CC1", "assay": "SRB", "setting": "10 µM, 48 h", "measurement": "growth percent", "value": "58%"}
{"Structure (SMILES)": "COC(=O)c1cc(C(C)=NNc2nc(-c3ccc4c(c3)OCCCO4)cs2)ccc1O", "assay": "annexin V/PI flow cytometry", "setting": "40 µM, 72 h", "measurement": "apoptotic cells", "value": "23.2 ± 2.09%"}
{"Structure (SMILES)": "CCCN1CCN(c2ccc3[nH]c(-c4ccc5[nH]c(-c6cc(OC)c(OC)c(OC)c6)nc5c4)nc3c2)CC1", "assay": "SRB", "setting": "10 µM, 48 h", "measurement": "growth percent", "value": "65.9%"}
{"Structure (SMILES)": "O=C1NC(c2ccccc2)(c2ccccc2)C(=O)N1Cc1cn(-c2c3ccccc3nc3ccccc23)nn1", "assay": "NCI60 single-dose screen", "setting": "10 µM", "measurement": "growth percentage", "value": "63.6%"}
{"Structure (SMILES)": "C[C@H](Nc1ccc2c(c1)OCCn1cc(N3C(=O)OC[C@H]3C(F)F)nc1-2)C(N)=O", "assay": "CellTiter-Glo", "setting": "120 h", "measurement": "Hill coefficient", "value": 1.02}
{"Structure (SMILES)": "CCCN1CCN(c2ccc3[nH]c(-c4ccc5[nH]c(-c6ccc(OCC)c(OCC)c6)nc5c4)nc3c2)CC1", "assay": "SRB", "setting": "10 µM, 48 h", "measurement": "growth percent", "value": "10.7%"}
{"Structure (SMILES)": "[NH2][Pt]([NH2])([Cl])[Cl]", "assay": "cell growth, sulforhodamine B", "measurement": "GI50", "value": "17 ± 3 µM"}
{"Structure (SMILES)": "CCN(CC)c1ccc(C=NNC(=O)CSc2nc3ccccc3c(=O)n2Cc2ccc(S(N)(=O)=O)cc2)c(O)c1", "assay": "NCI five-dose screen", "measurement": "TGI", "value": "> 100 µM"}
{"Structure (SMILES)": "C=CC(=O)N1CCC(COCC(=O)N2CCN(c3nc(-c4cnc(N)nc4C(F)F)nc(N4CCOC[C@@H]4C)n3)CC2)CC1", "assay": "Akt phosphorylation, inhibitor, in-cell western, refers to: Akt pSer473", "setting": "2 h", "measurement": "IC50", "value": "0.0111 µM"}
{"Structure (SMILES)": "NNc1nc(-c2ccc(Cl)cc2)c2c(NC(=O)c3ccccc3)nnc-2[nH]1", "assay": "SRB", "setting": "10 µM, NCI60 single-dose screen", "scale": "baseline: untreated", "measurement": "cell growth", "value": "97.2%"}
{"Structure (SMILES)": "C[C@H](Nc1ccc2c(c1)OCCn1cc(N3C(=O)OC[C@H]3C(F)F)nc1-2)C(N)=O", "assay": "FOXO1 translocation, kinase translocation reporter", "setting": "2 h", "measurement": "IC50", "value": "0.0449 µM"}
{"Structure (SMILES)": "COc1ccc2[nH]cc(CCNC(C)=O)c2c1", "measurement": "IC50", "value": "49.1 µM"}
{"note": "Excerpt of the above:"}
{"Structure (SMILES)": "C[C@H](Nc1ccc2c(c1)OCCn1cc(N3C(=O)OC[C@H]3C(F)F)nc1-2)C(N)=O", "assay": "CellTiter-Glo", "setting": "120 h", "measurement": "Hill coefficient", "value": 1.02}
{"Structure (SMILES)": "CCCN1CCN(c2ccc3[nH]c(-c4ccc5[nH]c(-c6ccc(OCC)c(OCC)c6)nc5c4)nc3c2)CC1", "assay": "SRB", "setting": "10 µM, 48 h", "measurement": "growth percent", "value": "10.7%"}
{"Structure (SMILES)": "[NH2][Pt]([NH2])([Cl])[Cl]", "assay": "cell growth, sulforhodamine B", "measurement": "GI50", "value": "17 ± 3 µM"}
